Assay results from different studies.
Each line is one published result; not all experiments were run side by side.
Technique: steady-state kinetics
B1: enzyme (Bacillus pumilus, UniProt A8FFI9); chain EARSIAWSVDEFFKNREGTFVIQEVKEKSPWVYNKKRAKERFAPQSTFKVANALIGLQTGAVRDEYDIKYWDGVKREIDNWNRDHTLGSGMRDSVVWYYQAMARDIGEERMNHWVKAIHYGNKDISGGIDQFWLSSTLRISPIEQVRFLKQLYEETLPFDLKNMRTVKRMMVQEEEKHATLYGKTGSGSDIGWYVGFIKHEHKTYILATNIKGTGIEAKDITYRILKKYHLMEASV
B2: enzyme A178R/D177A/G159A/M179S/P184R (Levilactobacillus brevis, UniProt Q03Q85); chain MKVTVVGCTHAGTFAIKQILAEHPDAEVTVYERNDVISFLSCGIALYLGGKVADPQGLFYSSPEELQKLGANVQMNHNVLAIDPDQKTVTVEDLTNHAQTTESYDKLVMTSGSWPIVPKIPGIDSDRVKLCKNWAHAQALIEDAKEAKRITVIGAGYIAAELAEAYSTTGHDVTLIARSARVMRKYFDADFTDVIEQDYRDHGVQLALGETVESFTDSATGLTIKTDKNSYETDLAILCIGFRPNTDLLKGKVDMAPNGAIITDDYMRSSNPDIFAAGDSAAVHYNPTHQNAYIPLATNAVRQGILVGKNLVKPTVKYMGTQSSSGLALYDRTIVSTGLTLAAAKQQGLNAEQVIVEDNYRPEFMPSTEPVLMSLVFDPDTHRILGGALMSKYDVSQSANTLSVCIQNENTIDDLAMVDMLFQPNFDRPFNYLNILAQAAQAKVAQSVNA
B3: Aspartyl-tRNA synthetase (Pseudomonas aeruginosa, UniProt Q51422); chain MMRSHYCGQLNESLDGQEVTLCGWVHRRRDHGGVIFLDVRDREGLAQVVFDPDRAETFAKADRVRSEFVVKITGKVRLRPEGARNPNMASGSIEVLGYELEVLNQAETPPFPLDEYSDVGEETRLRYRFIDLRRPEMAAKLKLRARITSSIRRYLDDNGFLDVETPILGRPTPEGARDYLVPSRTYPGHFFALPQSPQLFKQLLMVAGFDRYYQIAKCFRDEDLRADRQPEFTQIDIETSFLDESDIIGITEKMVRQLFKEVLDVEFDEFPHMPFEEAMRRYGSDKPDLRIPLELVDVADQLKEVEFKVFSGPANDPKGRVAALRVPGAASMPRSQIDDYTKFVGIYGAKGLAYIKVNERAKGVEGLQSPIVKFIPEANLNVILDRVGAVDGDIVFFGADKAKIVCDALGALRIKVGHDLKLLTREWAPMWVVDFPMFEENDDGSLSALHHPFTSPKCTPAELEANPGAALSRAYDMVLNGTELGGGSIRIHDKSMQQAVFRVLGIDEAEQEEKFGFLLDALKYGAPPHGGLAFGLDRLVMLMTGASSIREVIAFPKTQSAGDVMTQAPGSVDGKALRELHIRLREQPKAE
B4: sucA (Escherichia coli, UniProt P0AFG3); chain MQNSALKAWLDSSYLSGANQSWIEQLYEDFLTDPDSVDANWRSTFQQLPGTGVKPDQFHSQTREYFRRLAKDASRYSSTISDPDTNVKQVKVLQLINAYRFRGHQHANLDPLGLWQQDKVADLDPSFHDLTEADFQETFNVGSFASGKETMKLGELLEALKQTYCGPIGAEYMHITSTEEKRWIQQRIESGRATFNSEEKKRFLSELTAAEGLERYLGAKFPGAKRFSLEGGDALIPMLKEMIRHAGNSGTREVVLGMAHRGRLNVLVNVLGKKPQDLFDEFAGKHKEHLGTGDVKYHMGFSSDFQTDGGLVHLALAFNPSHLEIVSPVVIGSVRARLDRLDEPSSNKVLPITIHGDAAVTGQGVVQETLNMSKARGYEVGGTVRIVINNQVGFTTSNPLDARSTPYCTDIGKMVQAPIFHVNADDPEAVAFVTRLALDFRNTFKRDVFIDLVCYRRHGHNEADEPSATQPLMYQKIKKHPTPRKIYADKLEQEKVATLEDATEMVNLYRDALDAGDCVVAEWRPMNMHSFTWSPYLNHEWDEEYPNKVEMKRLQELAKRISTVPEAVEMQSRVAKIYGDRQAMAAGEKLFDWGGAENLAYATLVDEGIPVRLSGEDSGRGTFFHRHAVIHNQSNGSTYTPLQHIHNGQGAFRVWDSVLSEEAVLAFEYGYATAEPRTLTIWEAQFGDFANGAQVVIDQFISSGEQKWGRMCGLVMLLPHGYEGQGPEHSSARLERYLQLCAEQNMQVCVPSTPAQVYHMLRRQALRGMRRPLVVMSPKSLLRHPLAVSSLEELANGTFLPAIGEIDELDPKGVKRVVMCSGKVYYDLLEQRRKNNQHDVAIVRIEQLYPFPHKAMQEVLQQFAHVKDFVWCQEEPLNQGAWYCSQHHFREVIPFGASLRYAGRPASASPAVGYMSVHQKQQQDLVNDALNVE
B5: FMO3 N61S (Homo sapiens, UniProt P31513); chain GKKVAIIGAGVSGLASIRSCLEEGLEPTCFEKSNDIGGLWKFSDHAEEGRASIYKSVFSSSSKEMMCFPDFPFPDDFPNFMHNSKIQEYIIAFAKEKNLLKYIQFKTFVSSVNKHPDFATTGQWDVTTERDGKKESAVFDAVMVCSGHHVYPNLPKESFPGLNHFKGKCFHSRDYKEPGVFNGKRVLVVGLGNSGCDIATELSRTAEQVMISSRSGSWVMSRVWDNGYPWDMLLVTRFGTFLKNNLPTAISDWLYVKQMNARFKHENYGLMPLNGVLRKEPVFNDELPASILCGIVSVKPNVKEFTETSAIFEDGTIFEGIDCVIFATGYSFAYPFLDESIIKSRNNEIILFKGVFPPLLEKSTIAVIGFVQSLGAAIPTVDLQSRWAAQVIKGTCTLPSMEDMMNDINEKMEKKRKWFGKSETIQTDYIVYMDELSSFIGAKPNIPWLFLTDPKLAMEVYFGPCSPYQFRLVGPGQWPGARNAILTQWDRSLKPMQTRVVGRLQKPCFFFHWLKLFAIPILLIAVFLVLT

Substance	substrate	test system	conditions	Km [µM]
B1 (enzyme)	CC1(C)S[C@@H]2[C@H](NC(=O)[C@H](C(=O)O)c3ccsc3)C(=O)N2[C@H]1C(=O)O		pH 7	34
enzyme (Arabidopsis thaliana, UniProt Q9LTH3)	O=c1ccn([C@@H]2O[C@H](CO[P@@](=O)(O)O[P@@](=O)(O)O[C@H]3O[C@H](CO)[C@@H](O)[C@H](O)[C@H]3O)[C@@H](O)[C@H]2O)c(=O)[nH]1		pH 7.5, 25 °C	10.5
B2	NC(=O)C1=CN([C@@H]2O[C@H](COP(=O)(O)OP(=O)(O)OC[C@H]3O[C@@H](n4cnc5c(N)ncnc54)[C@H](OP(=O)(O)O)[C@@H]3O)[C@@H](O)[C@H]2O)C=CC1		pH 7.5, 37 °C	24
fucA (Escherichia coli, UniProt P0AB87)	C[C@@H](O)[C@@H](O)C(=O)COP(=O)(O)O		pH 7.8, 30 °C	980
protein (Stereum hirsutum, UniProt P9WEW2)	CC(C)=CCC/C(C)=C/CC/C(C)=C/CO[P@@](=O)(O)OP(=O)(O)O		pH 8, NaCl 200 mM, with: FPP 1–100 µM	1.52
MMP9 (Homo sapiens, UniProt P14780)	CSCC[C@H](NC(=O)CNC(=O)[C@H](CC(C)C)NC(=O)[C@@H]1CCCN1C(=O)CNC(C)=O)C(=O)N[C@@H](Cc1c[nH]cn1)C(=O)NCC(=O)N[C@@H](CCCCN)C(N)=O			727
gapN (Streptococcus mutans, UniProt Q59931)	NC(=O)c1ccc[n+]([C@@H]2O[C@H](COP(=O)(O)OP(=O)(O)OC[C@H]3O[C@@H](n4cnc5c(N)ncnc54)[C@H](OP(=O)(O)O)[C@@H]3O)[C@@H](O)[C@H]2O)c1		pH 8, racemic G3P, cofactor varied, with: NADP+	22
B3 (Aspartyl-tRNA synthetase)	N[C@@H](CC(=O)O)C(=O)O		with: Mg2+	170
B4 (sucA)	O=C(O)C(=O)CO		pH 6.8, 37 °C	720
Ptb (Listeria monocytogenes, UniProt Q8Y7B7)	CC(C)C(=O)SCCNC(=O)CCNC(=O)[C@H](O)C(C)(C)COP(=O)(O)OP(=O)(O)OC[C@H]1O[C@@H](n2cnc3c(N)ncnc32)[C@H](O)[C@@H]1OP(=O)(O)O		pH 7.5, 25 °C, apparent	57.9
B5 (FMO3 N61S)	CN1CCC[C@H]1c1cccnc1	HEK293 microsomes	37 °C, not purified, with: NADPH regenerating system	4700
enzyme (Babesia duncani, UniProt A0AAD9PLN9)	C[S+](CCCN)C[C@H]1O[C@@H](n2cnc3c(N)ncnc32)[C@H](O)[C@@H]1O		pH 7.5, 37 °C	33.5

Excerpt of the above:
Substance	substrate	test system	conditions	Km [µM]
MMP9 (Homo sapiens, UniProt P14780)	CSCC[C@H](NC(=O)CNC(=O)[C@H](CC(C)C)NC(=O)[C@@H]1CCCN1C(=O)CNC(C)=O)C(=O)N[C@@H](Cc1c[nH]cn1)C(=O)NCC(=O)N[C@@H](CCCCN)C(N)=O			727
